Published values from different studies.
Numbered parts are unrelated; each lists some results of a single study.

Sample 1 — technique: competition protein-binding microarray; form: double-stranded DNA, one strand shown; matrix: in vitro; tested at: 2 µM; together with: Pho4 competitor, 0.05 µM; reading: higher = stronger binding; constant ends, left off below: … GTCTTGATTCGCTTGACGCTGCTG
Target: Centromere-binding protein 1, full length, His-tagged (CBF1, Saccharomyces cerevisiae, UniProt P17106, residues 1-351)
UniProt P17106, sequence (whole entry, looked up): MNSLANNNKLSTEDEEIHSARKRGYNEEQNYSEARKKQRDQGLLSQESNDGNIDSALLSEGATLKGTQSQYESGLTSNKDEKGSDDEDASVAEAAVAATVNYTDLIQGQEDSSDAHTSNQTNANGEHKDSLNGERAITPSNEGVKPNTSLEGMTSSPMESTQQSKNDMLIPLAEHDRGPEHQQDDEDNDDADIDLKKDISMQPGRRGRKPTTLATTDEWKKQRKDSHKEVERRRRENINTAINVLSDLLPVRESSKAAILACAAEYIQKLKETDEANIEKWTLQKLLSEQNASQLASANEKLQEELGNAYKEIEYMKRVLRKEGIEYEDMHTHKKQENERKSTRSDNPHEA
Notes: whole 60-bp probe, lowest competitor level
Strand | fluorescence intensity
CGGGGTTAAGTTTGTCTTGTGGGTGGCTTGCAGCAG | 82.1 a.u.
GATTTACAGGCCTGGCACGGCGATTGGCCATTACCT | 51.4 a.u.
CCCGCGGGTCGCTATCACGATTCAGCACCCTTTGGA | 69.7 a.u.
CGGGGTTAAGTTTGAGTCGTGGGTGGCTTGCAGCAG | 76.6 a.u.
CTTTCAAATGTGGGTGACGTGCTAACTTGGGGCTTG | 76.4 a.u.
AATTTCCGGCTTCTTCACGTTATGCACCATCACCTT | 84.9 a.u.
GTCTTGTCTCATTGGGTCGTGGGTGTCCCCACTTCA | 70.4 a.u.
CCGGGGGCATATTGACGCGTGGAAGAATAGAAGTCC | 78.7 a.u.
GCGTTATGAGCTACCCTCGTGGCCGGAAAGATGGCG | 88.7 a.u.
TACCAAAAGTATTCATACGTGGCCGCTTGTTACCCC | 64 a.u.
TAATGAACTTTGTCCCACGTGCGGACATCATTTACT | 833 a.u.
ACAATGTTTCAACTTCGCGTGCTGTTAAAAAAGTAC | 97.7 a.u.
TATGGGTTGTCTGAACCCGTGACTCGTAGATCAGAA | 1080 a.u.
ATCATTTTCAATGAAGCTGTGACGGTGGCATTCGCA | 80.1 a.u.
AAATTACTAAGTTGTCACTCTACTTACCCCGTATGA | 77.3 a.u.
TGTGAATGGTGGGAGTGCATGACAACGAGGATTTTT | 83.1 a.u.
CATACCCAACCTTGCTAGGTGGGTGAAGATATTTGT | 62.2 a.u.
CTAACGAAGGTTTGTCACTAGACTTACAAGCCAAGT | 73.6 a.u.
CTTCTGTAAATTTGTCGCGTGGGTGGACGCGCCCCG | 97 a.u.
GAAAATTGCCGTTGTCATGCTGAGCATTTGTCGTAC | 79.1 a.u.
TTTTTCATGTAAGGCCACATGATTCAGACTTACATC | 289 a.u.
CTTCTGTAAATTTGGCTTGTGGGTGGACGCGCCCCG | 92.4 a.u.
ACTTTTTGTGGGGTAAACGTGGATTAAACGAATCTC | 107 a.u.

Sample 2 — technique: protein binding microarray; form: double-stranded DNA, one strand shown; matrix: in vitro; tested at: not given; baseline: not given; reading: higher = stronger binding
Target: Histone acetyltransferase KAT6A, both winged helices, GST fusion (KAT6A, Homo sapiens, UniProt Q92794, residues 1-181)
Notes: 8-mer, flanks averaged, mean of 2 arrays, mostly near background
Construct (chain): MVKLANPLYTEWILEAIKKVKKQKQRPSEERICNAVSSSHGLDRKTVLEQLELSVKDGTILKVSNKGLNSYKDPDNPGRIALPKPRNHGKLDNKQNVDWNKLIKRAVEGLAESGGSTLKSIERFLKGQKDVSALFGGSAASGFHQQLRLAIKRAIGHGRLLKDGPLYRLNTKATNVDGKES
Strand | E-score
TACCTCTA | -0.141
CTCGTGTC | -0.0541
GTATAGGA | -0.0859
GCAACGTA | -0.0477
CACAGTAC | -0.0343
CTTTCAAC | -0.0384
AGAGTTGC | 0.0171
GCATGGCC | -0.0414
CGGATCAC | 0.0511
CTCGGAAC | 0.0835
AGGTATCC | -0.0414
GCCCAAGA | -0.152
CCCACAGC | -0.18
ATTATTCC | 0.00039
AAATCGCG | 0.15
GGTACGGA | 0.213
CCGTACAG | 0.146
ATGTATAA | -0.0753

Sample 3 — technique: RNA Bind-n-Seq; form: RNA; matrix: in vitro; tested at: 365 nM; baseline: no-protein control; reading: higher = stronger binding
Target: RNA binding protein fox-1 homolog 2, RRM domain, GST-SBP tag (RBFOX2, Homo sapiens, UniProt O43251-10, residues 100-194)
Notes: natural RNA segment, single round, ends assumed
Constant ends, left off below: GGGAGUUCUACAGUCCGACGAUC … UGGAAUUCUCGGGUGCCAA
Construct (chain): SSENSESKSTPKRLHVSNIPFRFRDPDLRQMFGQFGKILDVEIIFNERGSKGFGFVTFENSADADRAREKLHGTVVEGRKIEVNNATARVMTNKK
Strand | RBNS enrichment (R)
AGAAGGCUGGAGGUGACAUGUCCGAGGUCACACAACAAAGCAGCAUGCAGGAACUAGAAACACAUCUUCAGCCUCCUCCUGGGCCAGCUCUUGUGCUACAGGUGGGGCGG | 13.8
AGCCCAGAACUUUUCCUUCUCAUUUUGGGUUUUCUCUUCUCCUGCUUUCCUGGGGAGAGAUUAAGCGCUCAUUAAGCAGAGGAGCCCACUUUGAGGAGAGCAAAGCACAA | 0.479
GAUGCUGUGAACACCAGGACUUUAAUCUUAUGCUUAAAAUGCCAGAUGUUGUUCGGGGGACAACUUGUAUCUUUCUAGCAGCAGAUCUGUAGUUUGUAUAGCCUCAACAA | 1.07
CAGUGAAUAACCUCUUGGAGUAUUUUUGGCUUUAUAUAAAACAAGGUUUUUAAUUGUAAAAUAUAAGUGCCAUUAGAAAAUGCACAGGGCAUAUCUUUGUUAAAGUAGAU | 0.46
GUUCAAAGUCAAGACAGGUAAAAGGGCAUUCAUCAUUGUGCCUCAUAUCAGGUUUUGAUGAAUAUAUGUGUGUGUGUGUGUGUGUGUGUGUGUGUGUGUGUAGAGGGAUG | 2.6
UUAGAAAAUGAAGCAGUAGAAACAAAACCUUUAUUAGUAUGGUAUUCCAGCAGCACCUUUAAAGCAAUCUUUACCUUAGUUUUUUGAGUUGUUUUACCUUUCAUCCCAAU | 0.385
UUAAUCUCAUUUGGCUUCUGGUUUACAGAAGGUAAAGCUCCUAUUGGCUGUGAGCCGUUGGUGAAAUCCUUUCACAUCGACACCAAAAGCUCUCCCCAGCUAGUGAAAAC | 0.186
UUGGAGAAUUAGAAUUCUCCAUCCUAUUAAACAGAAAGUAAAGCCAAAUAGCCUGGAGUUGUUUGUCCUACUUGUUCCAUAACCCCUAUGCUCAAGAUACUGAAGCUAUC | 0.365
AGCUGCUUGAAGCUCUGUGUAAGAGCACUGCACUGACGGUUUGGAGACCUGAGCCUGGGUCCUGACUUUUCCAUUGACUAAGCUCUGUGGCCUUGGGCAAGUCACUCCCC | 0.448
AACCUCUUCACAACAGUAUCAACACUGGCUUCUCCCGGUUCAUUUUAUGCGUGCGAGAAGUCAGUGGUAACUGCUGCAGGGCUUAAUACAUUAGUGGUAACUGGUUUAAA | 0.278
GCUAAUGUUAGGGCUUAAUUUUCUCAAAGCCUGACCUUUCAAAUCCAUGAUGAAUGCCAUCAGUCCCUCCUGCUGUUGCCUCCCUGUGACCUGGAGGACAGUGUGUGCCA | 0.701
UAGGGUAAAGCAAGAAAACUCAAGCUGCAGCUGGACUGCAGGCUUAUUUUGCUUAAGUCAACAGUGCCCUAAAACUCCAAACUCAAAUGCAGUCAAUUAUUCACGCCAUG | 0.289

Sample 4 — technique: EMSA with sequencing; form: double-stranded DNA, one strand shown; matrix: in vitro; tested at: 10 and 20 nM; baseline: negative control set to 0; reading: higher = stronger binding
Target: Hepatocyte nuclear factor 3-alpha (Foxa1, Mus musculus, UniProt P35582, residues 1-468, full length assumed)
UniProt P35582, sequence (whole entry, looked up): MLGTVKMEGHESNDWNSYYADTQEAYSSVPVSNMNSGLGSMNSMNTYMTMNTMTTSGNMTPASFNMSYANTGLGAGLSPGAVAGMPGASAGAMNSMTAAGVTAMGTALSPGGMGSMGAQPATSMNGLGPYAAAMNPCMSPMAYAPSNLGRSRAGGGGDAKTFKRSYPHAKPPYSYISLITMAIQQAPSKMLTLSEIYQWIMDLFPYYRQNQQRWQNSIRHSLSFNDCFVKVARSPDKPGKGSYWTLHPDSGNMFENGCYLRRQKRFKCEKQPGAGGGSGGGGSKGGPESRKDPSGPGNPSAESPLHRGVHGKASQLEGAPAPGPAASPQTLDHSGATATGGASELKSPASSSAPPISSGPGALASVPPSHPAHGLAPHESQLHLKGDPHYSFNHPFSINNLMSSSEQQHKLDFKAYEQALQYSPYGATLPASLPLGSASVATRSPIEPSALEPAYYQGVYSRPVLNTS
Notes: whole designed probe, mean of two concentrations, ends assumed
Constant ends, left off below: GTGAGCGGTGCCCATTGATGGGGAAC … TTTCACTGGGATCGTGGGGAC
Strand | normalised bound fraction [ratio]
GCTCGAGGCTGGGCGGACAGCTCCCTTTCTCCCGGAGTTGACGTCTGATGTGGGTTATAAATCCCGCTGTGTAAACGTCTGTCCACTCACTGGGCAAACATTCCTACACCCGCCCTCCCCGGGGAGCTCCAGGGTGCAGGGCGTGGACCTGCCCAGCCCTTCAGGGCCAGAAGGCACGGTGGAGCCGGTCTGC | 0.205
TAATGTATTATTTAGGAATCTACTTATGGGACCCATATCCATGAGAAACGTGAAGAGCGAGAAGCAAGATTCTGTAACACTGTCCACGATATTGTAAACAGAGGAGGCAGGGGTCTCATTCCTGTCTTTGCTCTTGGAAGGGCTCAGGAGCTGCTCTTGATTCTAGGTATGCCATTTCCTTTGTATTTAGGCG | 0.213
CGGGGGCAGGTGAGCCTGCAGCTCCATGGCCCATGTCTGACTCTTCTCCCAGTGGCCATGGCTGGCTGCATGCAATGTTGACTCATCCCTGTGTACACATGGCATATTTATTTTTAATTCATATTAGGAATGTGCACCAACTTGTGTGTGAAAAATGGCAGAAACGATTCCACCTCTGTACAAATTTCATACA | 0.364
CAAGTTTGTGGTCCAGGAGCAACAGGTTATGCCATACAGCCTAGGTGTGTAGTAGGCTACACACCGTCTATGTTTGTGTTGTACACTCTACAATGTTTGCACAATGATGAAATCTTCTCAGAACCCATGACTCATATACCCCTGTTGTTAAGCGATACATGACTGTACTTTTTTTAAAAAGTCCAAGGATATA | 0.386
TACCAACCAAAGATTTTGAAAAGAGAGTCGGTCCTTGATGATTCAATTTCAAGGCCAAACCATCACAGGGACCACTTTGGAAGTAATATTAAGTAATCTAGCATCCTTTTAGTTAATGCTAATGGTTAGCTTGGTTTTCTGTTATGTATAGTCAAAAGGATTCTACATGATTAAGCCAGAAGTATCTATTTAG | -0.044
AGGCACAAGGTATGAATCACTAAGAATCTAGCAGCAGCTCTAGAAGCCTCCAAAGATAATTGCACTTCCCCAACGGGGGTGGAGTAGGGGGACGTAAATATGAAAGAACAGTGGATGGCCTAAATCAGTATGTGTCACTCTTTGTAAAGAGCCACAAGTGTTTGACTAGGGAAAAAGGAAAAGAGGCGAGAGT | 0.0315
TGATGAGAAACATGATAATTATTTAGTCTGAAAGGATCTTCTCCAATAATTTTTTTTTGTCGTGATTCTCCACCCCCACATTCCTGACTAAATGCAAACAAACCTAAATTGAGGGAAATTCTATGCAATACCTAACCATTATTCATCAAATGTACACAGGAGTACAGTGACACAATCATGGTTCACTGTAACC | 0.341
TTATGATCTGAGTATATATAGTAAGTACCTCCCCTTTCAGGGTAAGGCAGTAGGTAATGGTGAACAGGGAAGCAAAAGGTGACTCAGGTTGAGTAAACAACACCAAGCATATCTGACTCAAGGAATGCTTCAGAGGCCAGGGGTGCATGCCTGTAATCCCAGCACCTTGGAAGGCTGACACAGGAGGATCACT | 0.397

Excerpt of the above (sample 1):
Strand | fluorescence intensity
GTCTTGTCTCATTGGGTCGTGGGTGTCCCCACTTCA | 70.4 a.u.
CCGGGGGCATATTGACGCGTGGAAGAATAGAAGTCC | 78.7 a.u.
GCGTTATGAGCTACCCTCGTGGCCGGAAAGATGGCG | 88.7 a.u.
TACCAAAAGTATTCATACGTGGCCGCTTGTTACCCC | 64 a.u.
TAATGAACTTTGTCCCACGTGCGGACATCATTTACT | 833 a.u.
ACAATGTTTCAACTTCGCGTGCTGTTAAAAAAGTAC | 97.7 a.u.
TATGGGTTGTCTGAACCCGTGACTCGTAGATCAGAA | 1080 a.u.
ATCATTTTCAATGAAGCTGTGACGGTGGCATTCGCA | 80.1 a.u.
